Assay results from different studies.
Numbered parts are unrelated; each lists some results of a single study.
Sequence of UniProt O00750 (whole entry, looked up): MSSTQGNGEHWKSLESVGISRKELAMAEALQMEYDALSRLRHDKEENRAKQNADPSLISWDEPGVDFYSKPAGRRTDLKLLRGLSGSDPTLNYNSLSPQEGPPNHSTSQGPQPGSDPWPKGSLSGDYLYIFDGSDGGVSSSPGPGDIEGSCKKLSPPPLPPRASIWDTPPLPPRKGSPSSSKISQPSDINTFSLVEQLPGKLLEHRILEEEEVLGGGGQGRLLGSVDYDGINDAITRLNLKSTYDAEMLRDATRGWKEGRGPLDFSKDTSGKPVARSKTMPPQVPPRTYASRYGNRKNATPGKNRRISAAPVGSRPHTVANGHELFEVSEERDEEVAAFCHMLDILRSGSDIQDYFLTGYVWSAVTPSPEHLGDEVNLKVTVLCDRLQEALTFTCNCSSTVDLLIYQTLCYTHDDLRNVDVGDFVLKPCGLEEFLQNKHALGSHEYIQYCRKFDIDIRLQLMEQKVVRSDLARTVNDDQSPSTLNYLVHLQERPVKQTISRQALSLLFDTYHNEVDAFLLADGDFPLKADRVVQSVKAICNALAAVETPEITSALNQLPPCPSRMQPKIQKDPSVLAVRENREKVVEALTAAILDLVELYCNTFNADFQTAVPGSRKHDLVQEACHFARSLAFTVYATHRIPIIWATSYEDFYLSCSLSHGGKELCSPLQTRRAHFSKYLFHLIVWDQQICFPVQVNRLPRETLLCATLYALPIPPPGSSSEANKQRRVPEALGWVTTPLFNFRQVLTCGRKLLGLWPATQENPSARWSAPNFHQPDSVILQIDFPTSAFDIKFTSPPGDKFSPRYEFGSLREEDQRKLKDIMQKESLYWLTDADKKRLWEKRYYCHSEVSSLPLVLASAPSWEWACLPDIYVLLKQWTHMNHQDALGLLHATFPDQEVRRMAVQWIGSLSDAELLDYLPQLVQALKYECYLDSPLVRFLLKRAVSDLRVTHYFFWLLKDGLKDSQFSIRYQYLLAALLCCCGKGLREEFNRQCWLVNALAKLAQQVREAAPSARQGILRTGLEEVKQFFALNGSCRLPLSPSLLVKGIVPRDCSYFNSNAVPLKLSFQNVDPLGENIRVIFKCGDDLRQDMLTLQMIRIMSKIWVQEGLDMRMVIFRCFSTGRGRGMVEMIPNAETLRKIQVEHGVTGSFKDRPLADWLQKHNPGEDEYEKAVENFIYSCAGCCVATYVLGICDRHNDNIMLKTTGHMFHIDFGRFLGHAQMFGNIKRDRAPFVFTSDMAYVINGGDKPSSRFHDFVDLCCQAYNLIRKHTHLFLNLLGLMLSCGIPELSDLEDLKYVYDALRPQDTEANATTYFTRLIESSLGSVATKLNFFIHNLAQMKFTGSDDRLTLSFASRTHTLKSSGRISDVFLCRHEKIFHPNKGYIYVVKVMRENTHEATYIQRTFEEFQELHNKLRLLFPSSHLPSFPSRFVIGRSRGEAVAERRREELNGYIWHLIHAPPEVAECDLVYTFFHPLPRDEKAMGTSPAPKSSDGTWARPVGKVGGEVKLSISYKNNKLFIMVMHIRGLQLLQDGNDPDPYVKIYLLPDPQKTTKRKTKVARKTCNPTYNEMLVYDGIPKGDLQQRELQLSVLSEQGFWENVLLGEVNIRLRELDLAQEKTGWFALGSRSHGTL
Sequence of UniProt Q9UK32 (whole entry, looked up): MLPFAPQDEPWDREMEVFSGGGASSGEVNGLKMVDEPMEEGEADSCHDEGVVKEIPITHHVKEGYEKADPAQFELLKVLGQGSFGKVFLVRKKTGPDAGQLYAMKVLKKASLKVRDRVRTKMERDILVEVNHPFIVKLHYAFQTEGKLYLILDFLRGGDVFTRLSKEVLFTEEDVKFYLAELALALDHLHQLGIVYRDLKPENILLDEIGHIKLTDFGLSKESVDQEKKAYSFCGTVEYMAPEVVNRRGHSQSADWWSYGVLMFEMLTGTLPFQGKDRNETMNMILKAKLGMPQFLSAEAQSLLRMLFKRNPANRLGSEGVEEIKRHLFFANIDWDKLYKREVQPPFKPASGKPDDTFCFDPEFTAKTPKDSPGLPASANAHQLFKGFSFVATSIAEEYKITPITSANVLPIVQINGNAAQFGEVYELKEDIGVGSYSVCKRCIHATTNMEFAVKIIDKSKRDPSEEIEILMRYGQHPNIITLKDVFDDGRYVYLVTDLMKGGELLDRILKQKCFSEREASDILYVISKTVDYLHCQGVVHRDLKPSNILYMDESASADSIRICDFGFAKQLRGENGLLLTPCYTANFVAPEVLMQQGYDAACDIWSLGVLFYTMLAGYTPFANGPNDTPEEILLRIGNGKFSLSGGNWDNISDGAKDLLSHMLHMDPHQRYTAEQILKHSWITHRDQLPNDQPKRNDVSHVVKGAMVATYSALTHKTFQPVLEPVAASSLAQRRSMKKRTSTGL
Sequence of UniProt Q9HBH9 (whole entry, looked up): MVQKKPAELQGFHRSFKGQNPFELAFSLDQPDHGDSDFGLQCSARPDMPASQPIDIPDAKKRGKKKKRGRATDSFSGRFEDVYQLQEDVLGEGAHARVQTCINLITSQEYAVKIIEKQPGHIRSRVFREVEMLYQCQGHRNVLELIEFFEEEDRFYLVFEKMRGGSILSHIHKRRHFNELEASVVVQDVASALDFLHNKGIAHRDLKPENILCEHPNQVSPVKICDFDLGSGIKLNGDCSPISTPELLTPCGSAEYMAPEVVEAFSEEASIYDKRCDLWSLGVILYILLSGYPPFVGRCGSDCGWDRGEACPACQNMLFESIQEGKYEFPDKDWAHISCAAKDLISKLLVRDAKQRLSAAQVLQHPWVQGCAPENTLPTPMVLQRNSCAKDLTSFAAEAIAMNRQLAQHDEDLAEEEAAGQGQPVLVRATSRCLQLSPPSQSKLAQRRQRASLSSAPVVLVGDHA
Sequence of UniProt Q15418 (whole entry, looked up): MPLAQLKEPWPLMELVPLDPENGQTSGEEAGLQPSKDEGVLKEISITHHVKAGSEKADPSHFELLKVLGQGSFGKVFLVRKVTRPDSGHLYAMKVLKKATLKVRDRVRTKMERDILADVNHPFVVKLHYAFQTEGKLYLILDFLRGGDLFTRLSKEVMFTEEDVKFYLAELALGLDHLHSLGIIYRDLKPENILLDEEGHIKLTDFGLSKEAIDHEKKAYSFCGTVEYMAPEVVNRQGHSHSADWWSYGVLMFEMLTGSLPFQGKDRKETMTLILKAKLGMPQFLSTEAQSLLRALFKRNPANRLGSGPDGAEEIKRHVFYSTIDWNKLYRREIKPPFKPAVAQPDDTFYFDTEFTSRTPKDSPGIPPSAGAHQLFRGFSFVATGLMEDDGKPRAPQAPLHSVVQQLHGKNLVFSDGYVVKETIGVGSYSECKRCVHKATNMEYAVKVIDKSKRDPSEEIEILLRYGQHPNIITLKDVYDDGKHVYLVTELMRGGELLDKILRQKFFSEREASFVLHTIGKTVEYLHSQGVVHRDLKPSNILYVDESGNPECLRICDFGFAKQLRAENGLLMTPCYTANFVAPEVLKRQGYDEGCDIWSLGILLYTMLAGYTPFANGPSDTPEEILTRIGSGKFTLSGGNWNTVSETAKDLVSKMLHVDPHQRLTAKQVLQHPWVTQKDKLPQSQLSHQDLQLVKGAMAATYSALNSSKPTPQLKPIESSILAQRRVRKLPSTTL
Sequence of UniProt P11309 (whole entry, looked up): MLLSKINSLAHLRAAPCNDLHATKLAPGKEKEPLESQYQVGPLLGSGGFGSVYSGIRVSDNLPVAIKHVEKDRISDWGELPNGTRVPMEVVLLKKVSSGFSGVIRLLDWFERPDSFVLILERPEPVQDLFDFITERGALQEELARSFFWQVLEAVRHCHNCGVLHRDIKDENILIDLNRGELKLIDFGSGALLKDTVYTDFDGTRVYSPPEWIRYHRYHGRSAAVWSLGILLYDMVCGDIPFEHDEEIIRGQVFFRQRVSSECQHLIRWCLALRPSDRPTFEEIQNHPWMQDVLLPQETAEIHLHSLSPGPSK
Sequence of UniProt Q8N752 (whole entry, looked up): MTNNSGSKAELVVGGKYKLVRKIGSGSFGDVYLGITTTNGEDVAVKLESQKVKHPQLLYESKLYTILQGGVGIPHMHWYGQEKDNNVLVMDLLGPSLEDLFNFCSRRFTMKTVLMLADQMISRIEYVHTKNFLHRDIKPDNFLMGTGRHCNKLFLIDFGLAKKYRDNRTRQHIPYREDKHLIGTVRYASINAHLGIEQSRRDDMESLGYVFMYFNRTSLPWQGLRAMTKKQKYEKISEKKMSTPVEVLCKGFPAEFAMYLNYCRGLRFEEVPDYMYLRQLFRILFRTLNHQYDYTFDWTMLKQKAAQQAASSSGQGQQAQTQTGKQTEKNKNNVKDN

Study 1 — host: mouse; medium: microsomes or S9; tested at: 2 µM; time: 0.5 h
`Cc1noc(C)c1Cc1c(C(=O)N2CCC(Cc3nc(C4CCOCC4)no3)CC2)noc1C` has a remaining compound of 3.39%.
`CCc1nn2c(=O)c(CC(=O)OC)c(C)[nH]c2c1-c1ccccc1` has a remaining compound of 84.6%.
For `c1ccc(C(c2ccccc2)c2n[nH]c3c2CNCC3)cc1`, the remaining compound was 74.1%.
For `CC(=O)COc1cc(N2C(=O)C(C)=C(C)C2=O)c(F)cc1Cl`, the remaining compound was 17.6%.
`CN1C(=O)N(C)C2(CCN(CCOc3ccccc3)C2)C1=O` (stereo not shown) has a remaining compound of 43.3%.
`c1ccc(Cn2c(-c3ccc(Oc4ccccc4)cc3)cn3ncnc23)cc1` has a remaining compound of 0.115%.
For `CC1(C)CC(O)CC(C)(C)N1CC(O)COc1cccc2ccccc12` (stereo not shown), the remaining compound was 0%.
`CC1(C)C(C(=O)O)C1C(=O)Nc1c[nH]c(=O)[nH]c1=O` (stereo not shown) has a remaining compound of 51.7%.
The remaining compound of `CC(C)n1ncc2c1NC(=O)CC21C(=O)N(C)c2cc(Cl)cc(Cl)c21` (stereo not shown) is reported as 20.4%.
With `CC(=O)c1c(C)n(S(=O)(=O)c2ccc(C)cc2)c2ccc(NS(=O)(=O)c3ccc(C)cc3)cc12` the remaining compound was 3.33%.
With `COc1ccccc1NC(=O)C1c2ccccc2Oc2ccccc21` the remaining compound was 0.643%.
For `Cc1cc2nnc(SC3CC(C)OC3=O)n2c(C)n1` (stereo not shown), the remaining compound was 30%.
For `CC(c1ccccc1Cl)N1CCN(Cc2cc[nH]n2)CC1` (stereo not shown), the remaining compound was 3.95%.
For `Cc1nc(N2CCN(c3ccccn3)CC2)nc2c1C(=O)CC(c1cccs1)C2` (stereo not shown), the remaining compound was 34.2%.
For `COc1cccc(-c2csc3[nH]cnc(=O)c23)c1`, the remaining compound was 1.37%.
With `CC(C)N1/C(=C/C2=Cc3ccccc3OC2)C(=O)c2ccccc2S1(=O)=O` the remaining compound was 3.02%.
`Cc1cccc(NC(=N)/N=c2\nc(O)c(Cc3ccccc3)c(C)[nH]2)c1` gave a remaining compound of 43.9%.
With `CCN1CCN(C2(CNc3oc(-c4ccc(Br)o4)nc3C#N)CCCCC2)CC1` the remaining compound was 57.3%.
`O=C(Cn1cnc(C2CC2)cc1=O)N1CCC(N2CC(=O)N(c3ccccc3)C2=O)CC1` has a remaining compound of over 99%.
With `CCOC(=O)CC1C(=O)NCCN1S(=O)(=O)c1ccc(C)cc1` (stereo not shown) the remaining compound was 24%.

Study 2 — read-out: enzyme activity; action: inhibitor; tested at: 0.5 µM; relative to: control
Target: Interleukin-1 receptor-associated kinase 1 (IRAK1, Homo sapiens, UniProt P51617)
Sequence of UniProt P51617 (whole entry, looked up): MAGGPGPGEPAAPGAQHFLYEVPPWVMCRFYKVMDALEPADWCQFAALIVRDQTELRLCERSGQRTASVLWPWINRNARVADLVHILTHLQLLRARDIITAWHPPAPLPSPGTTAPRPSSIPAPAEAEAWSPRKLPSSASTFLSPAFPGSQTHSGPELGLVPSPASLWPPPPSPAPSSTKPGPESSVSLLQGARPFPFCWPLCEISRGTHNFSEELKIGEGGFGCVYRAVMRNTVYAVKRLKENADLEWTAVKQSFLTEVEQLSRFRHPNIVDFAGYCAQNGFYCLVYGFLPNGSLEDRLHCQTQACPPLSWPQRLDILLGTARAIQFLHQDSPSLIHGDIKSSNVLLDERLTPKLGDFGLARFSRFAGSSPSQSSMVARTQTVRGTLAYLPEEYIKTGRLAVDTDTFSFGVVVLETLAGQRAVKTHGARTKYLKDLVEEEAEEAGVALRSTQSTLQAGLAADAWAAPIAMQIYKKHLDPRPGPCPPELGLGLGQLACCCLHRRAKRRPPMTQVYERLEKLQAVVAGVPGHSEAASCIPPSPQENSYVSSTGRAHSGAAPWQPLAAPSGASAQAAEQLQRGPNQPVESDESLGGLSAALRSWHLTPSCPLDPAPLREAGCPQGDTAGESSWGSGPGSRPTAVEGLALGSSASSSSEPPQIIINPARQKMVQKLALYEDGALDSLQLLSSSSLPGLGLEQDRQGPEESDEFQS
`Cc1cc(Nc2nc(-c3ccccc3)nc3ccccc23)n[nH]1` has a remaining activity of 79.3%.
`Oc1ccc(Nc2nc(-c3ccc(Cl)cc3)cs2)cc1` has a remaining activity of 123%.
The remaining activity of `NC(=O)c1ccc(N(C(N)=O)c2c(F)cccc2F)nc1-c1ccc(F)cc1F` is reported as 94.2%.
For `Cc1cncc2cccc(S(=O)(=O)N3CCCN(C(=O)CN)C[C@@H]3C)c12`, the remaining activity was 135%.
For `CC#CC(=O)Nc1cc2c(Nc3ccc(F)c(Cl)c3)ncnc2cn1`, the remaining activity was 104%.
For `Nc1ncnc2c1cnn2-c1ccccc1`, the remaining activity was 85.8%.
`N#CC(=C(N)Sc1ccc(N)cc1)c1ccccc1C(F)(F)F` has a remaining activity of 100%.
The remaining activity of `O=C1Cc2c([nH]c3ccc([N+](=O)[O-])cc23)-c2ccccc2N1` is reported as 93.1%.
The remaining activity of `Nc1nc(Nc2ccc(S(N)(=O)=O)cc2)nn1C(=O)c1c(F)cccc1F` is reported as 89.8%.
The remaining activity of `CC(=O)c1ccc(N2CCOCC2)cc1O` is reported as 111%.
With `Nc1nccc(-c2c(-c3ccc(F)cc3)ncn2C2CCNCC2)n1` the remaining activity was 114%.
`Cc1ccc(NC2=CC(=O)c3sc(C)nc3C2=O)cc1` gave a remaining activity of 108%.
With `COc1cc(Nc2c(C#N)cnc3cc(OCCCN4CCN(C)CC4)c(OC)cc23)c(Cl)cc1Cl` the remaining activity was 91.3%.
For `Fc1ccc(-c2nc3n(c2-c2ccncc2)CCS3)cc1`, the remaining activity was 125%.
The remaining activity of `CSc1nc(-c2ccnc(N[C@@H](C)c3ccccc3)c2)c(-c2ccc(F)cc2)[nH]1` (racemic) is reported as 103%.
For `CCc1[nH]c(-c2ccc(OC)cc2)nc1-c1ccncc1`, the remaining activity was 128%.
`O=C1NC(=O)C(c2c[nH]c3ccccc23)=C1c1c[nH]c2ccccc12` gave a remaining activity of 89.6%.
For `CC[n+]1c(/C=C/N(C)c2ccccc2)n(-c2ccccc2)c2ccc(-c3nc4ccccc4s3)cc21`, the remaining activity was 102%.
The remaining activity of `COc1ccc(S(=O)(=O)N(CCO)c2ccccc2CN(C)CC=Cc2ccc(Cl)cc2)cc1` is reported as 98%.
For `CCCC(=O)Oc1ccc2[nH]c(C(=O)c3cc4ccccc4[nH]3)cc2c1`, the remaining activity was 90.5%.

Study 3 — read-out: cell-free assay; technique: competition with immobilised ligand; tested at: 1 µM
Compound: CS(=O)(=O)c1cc(C2(NC(=O)c3cncc4c3cnn4-c3ccc(F)cc3)CC2)ccn1
It gave 100% for remaining binding (MAP kinase-interacting serine/threonine-protein kinase 2 (MKNK2, Homo sapiens, UniProt Q9HBH9)).
It gave 98% for remaining binding (Serine/threonine-protein kinase LATS1 (LATS1, Homo sapiens, UniProt O95835)).
The remaining binding was 48% (Beta-adrenergic receptor kinase 1 (GRK2, Homo sapiens, UniProt P25098)).
It gave 100% for remaining binding (Casein kinase I isoform alpha-like (CSNK1A1L, Homo sapiens, UniProt Q8N752)).
For Epidermal growth factor receptor (EGFR, Homo sapiens, UniProt P00533, T790M): remaining binding read 100%.
Ribosomal protein S6 kinase alpha-6, C-terminal kinase domain (RPS6KA6, Homo sapiens, UniProt Q9UK32) — remaining binding: 64%.
For Serine/threonine-protein kinase pim-1 (PIM1, Homo sapiens, UniProt P11309): remaining binding read 100%.
The remaining binding was 84% (Phosphatidylinositol 4-phosphate 3-kinase C2 domain-containing subunit beta (PIK3C2B, Homo sapiens, UniProt O00750)).
It gave 81% for remaining binding (Serine/threonine-protein kinase 32C (STK32C, Homo sapiens, UniProt Q86UX6)).
Tyrosine-protein kinase receptor TYRO3 (TYRO3, Homo sapiens, UniProt Q06418) — remaining binding: 91%.
The remaining binding was 100% (Serine/threonine-protein kinase ULK1 (ULK1, Homo sapiens, UniProt O75385)).
The remaining binding was 100% (MAP/microtubule affinity-regulating kinase 4 (MARK4, Homo sapiens, UniProt Q96L34)).
It gave 93% for remaining binding (Phosphatidylinositol 3-kinase C2 domain-containing subunit gamma (PIK3C2G, Homo sapiens, UniProt O75747)).
It gave 100% for remaining binding (Misshapen-like kinase 1 (MINK1, Homo sapiens, UniProt Q8N4C8)).
The remaining binding was 97% (Proto-oncogene tyrosine-protein kinase receptor Ret (RET, Homo sapiens, UniProt P07949, V804M)).
For Ribosomal protein S6 kinase alpha-1, N-terminal kinase domain (RPS6KA1, Homo sapiens, UniProt Q15418): remaining binding read 77%.
Mitogen-activated protein kinase kinase kinase 6 (MAP3K6, Homo sapiens, UniProt O95382) — remaining binding: 100%.

Study 4 — cell line: HH; tested at: 2 µM; time: 48 h; relative to: untreated
For `COc1cc(C(=O)NC2CCN(C)CC2)ccc1Nc1ncc2c(n1)N(C1CCCC1)CC(F)(F)C(=O)N2C`, the viability was 30.3%.
With `N[C@@H]1CCCN(c2c(/C=C3\SC(=O)NC3=O)cccc2-c2ccccc2)C1` the viability was 69.4%.
`CN(C)CCCn1cc(C2=C(c3c[nH]c4ccccc34)C(=O)NC2=O)c2ccccc21` has a viability of 64.9%.
`COc1cc2nccc(Oc3ccc(NC(=O)NC4CC4)c(Cl)c3)c2cc1C(N)=O` has a viability of 56.9%.
`Cc1cnc(Nc2ccc(OCCN3CCCC3)cc2)nc1Nc1cccc(S(=O)(=O)NC(C)(C)C)c1` gave a viability of 40.9%.
With `CS(=O)(=O)CCNCc1ccc(-c2ccc3ncnc(Nc4ccc(OCc5cccc(F)c5)c(Cl)c4)c3c2)o1` the viability was 90.3%.
`COc1cccc(-n2c(=O)[nH]c3cc(Cl)n(-c4ccc(-c5cccc(OC)c5O)cc4)c3c2=O)c1` gave a viability of 93.2%.
For `CCN1/C(=C/C(C)=O)Sc2ccc(OC)cc21`, the viability was 79.3%.
The viability of `Cc1cc(C(C)Nc2ccccc2)c2nc(N3CCOCC3)cc(=O)n2c1` (stereo not shown) is reported as 89.5%.
For `O=C(NOCC(O)CO)c1cc(Br)c(F)c(F)c1Nc1ccc(I)cc1F` (stereo not shown), the viability was 96%.
`CCN(CC)CCCC(C)Nc1nc(C)cc(Nc2ccc3nc(C)cc(N)c3c2)n1` (stereo not shown) has a viability of 87.9%.
`OC(c1cc(-c2ccc(Cl)cc2)nc2ccccc12)C1CCCCN1` (stereo not shown) gave a viability of 80%.
`CC(C)(C)c1nc(-c2cccc(NS(=O)(=O)c3c(F)cccc3F)c2F)c(-c2ccnc(N)n2)s1` gave a viability of 49.1%.
`COc1ccc2cc(-c3nc(-c4ccc([S+](C)[O-])cc4)[nH]c3-c3ccncc3)ccc2c1` (stereo not shown) gave a viability of 88.7%.
The viability of `CNC(=O)c1c(F)cccc1Nc1nc(Nc2cc3c(ccn3C(=O)CN(C)C)cc2OC)nc2[nH]ccc12` is reported as 87.3%.
With `CCOC(=O)c1cnc2ccc(-c3cncc(NS(=O)(=O)c4ccccc4)c3)cn12` the viability was 23.6%.
With `CC(C)n1nc(-c2ccc3oc(N)nc3c2)c2c(N)ncnc21` the viability was 56.9%.
For `C=CC(=O)Nc1cccc(Nc2nc(Nc3ccc(Oc4ccnc(C(=O)NC)c4)cc3)ncc2F)c1`, the viability was 73.8%.
`COc1cc2ncc(-c3ccccc3)nc2cc1OC` gave a viability of 61%.
`Cc1c(NC(=O)OC[C@@H]2COCCN2)cn2ncnc(Nc3ccc4c(cnn4Cc4cccc(F)c4)c3)c12` gave a viability of 126%.
With `O=C(NOCC1CC1)c1ccc(F)c(F)c1Nc1ccc(I)cc1Cl` the viability was 103%.
With `CC(=O)c1c(C)c2cnc(Nc3ccc(N4CCNCC4)cn3)nc2n(C2CCCC2)c1=O` the viability was 67.9%.

For quick reference, copied from above (study 3):
Ribosomal protein S6 kinase alpha-6, C-terminal kinase domain (RPS6KA6, Homo sapiens, UniProt Q9UK32) — remaining binding: 64%.
For Serine/threonine-protein kinase pim-1 (PIM1, Homo sapiens, UniProt P11309): remaining binding read 100%.
The remaining binding was 84% (Phosphatidylinositol 4-phosphate 3-kinase C2 domain-containing subunit beta (PIK3C2B, Homo sapiens, UniProt O00750)).
It gave 81% for remaining binding (Serine/threonine-protein kinase 32C (STK32C, Homo sapiens, UniProt Q86UX6)).
Tyrosine-protein kinase receptor TYRO3 (TYRO3, Homo sapiens, UniProt Q06418) — remaining binding: 91%.
The remaining binding was 100% (Serine/threonine-protein kinase ULK1 (ULK1, Homo sapiens, UniProt O75385)).
The remaining binding was 100% (MAP/microtubule affinity-regulating kinase 4 (MARK4, Homo sapiens, UniProt Q96L34)).
It gave 93% for remaining binding (Phosphatidylinositol 3-kinase C2 domain-containing subunit gamma (PIK3C2G, Homo sapiens, UniProt O75747)).
It gave 100% for remaining binding (Misshapen-like kinase 1 (MINK1, Homo sapiens, UniProt Q8N4C8)).
The remaining binding was 97% (Proto-oncogene tyrosine-protein kinase receptor Ret (RET, Homo sapiens, UniProt P07949, V804M)).
For Ribosomal protein S6 kinase alpha-1, N-terminal kinase domain (RPS6KA1, Homo sapiens, UniProt Q15418): remaining binding read 77%.
Mitogen-activated protein kinase kinase kinase 6 (MAP3K6, Homo sapiens, UniProt O95382) — remaining binding: 100%.
